Assay results of several laboratories.
Each line is one published result; not all experiments were run side by side. ± marks the error that the study gave.
Organism: HIV-1
Read-out: viral replication

The therapeutic window of `CN(C)CCCn1c(=O)c2ccc3c(=O)n(CCCN(C)C)c(=O)c4c5[nH]c6cc(C(=O)O)ccc6[nH]c5c(c1=O)c2c34` is reported as 800 to 5000 nM (TZM-bl, NL4-3; range active at 80% cytotoxicity or less).
`Nc1nc2c(ncn2COCCOP(=O)(O)O)c(=O)[nH]1` gave an EC50 of 100000 ± 11000 nM (measured: p24 antigen; MT-4, LAI.04; cells preincubated with compound overnight).
`CN(C)CCCn1c(=O)c2ccc3c(=O)n(CCCN(C)C)c(=O)c4c5[nH]c6ccccc6[nH]c5c(c1=O)c2c34` has an IC50 of < 0.04 µM (LTR luciferase reporter; TZM-bl, BaL; 48 h).
The IC50 of `c1nc2c(NCC3CCC(CNCCCNC4CCCCC4)CC3)nc(N3CCNCC3)nc2[nH]1` (stereo not drawn) is reported as 0.0023 µM (inhibitor; TZM-bl, IIIB).
For `C=C(C)[C@@H]1CC[C@]2(C(=O)OCCCCCC(=O)OCC)CC[C@]3(C)[C@H](CC[C@@H]4[C@@]5(C)CC[C@H](O)C(C)(C)[C@@H]5CC[C@]43C)[C@@H]12`, the IC50 was > 10 µM (measured: p24; MT4, NL4-3; 96 h).
With `Cc1cn([C@H]2C=C[C@@H](CO)O2)c(=O)[nH]c1=O` the EC90 was 370 nM (measured: reverse transcriptase activity; human PBM cells, LAI).
`C=C(C)[C@@H]1CC[C@]2(C(=O)OCOCCOC)CC[C@]3(C)[C@H](CC[C@@H]4[C@@]5(C)CC[C@H](OCOCCOC)C(C)(C)[C@@H]5CC[C@]43C)[C@@H]12` gave an IC50 of > 10 µM (measured: p24; MT4, NL4-3; 96 h).
With `Cc1cc(C)cc(S(=O)(=O)c2c(C(=O)NCCCCNS(=O)(=O)c3ccc(F)cc3)[nH]c3ccc(Cl)cc23)c1` the EC50 was 20 ± 8.5 nM (MT-4, IIIB).
With `C=C(C)[C@@H]1CC[C@]2(C(=O)N3CCC(CCCC(=O)NCCCN4CCOCC4)CC3)CC[C@]3(C)[C@H](CC[C@@H]4[C@@]5(C)CC[C@H](O)C(C)(C)[C@@H]5CC[C@]43C)[C@@H]12` the IC50 was > 10 µM (measured: p24; MT4, NL4-3; 96 h).
`Cc1cc(C)cc(S(=O)(=O)c2c(C(=O)NCCNS(=O)(=O)c3ccc(Cl)cc3)[nH]c3ccc(Cl)cc23)c1` has an EC50 of 13 ± 4.8 nM (MT-4, IIIB).
`CN(C)CCCn1c(=O)c2ccc3c(=O)n(CCCN(C)C)c(=O)c4c5[nH]c6cc([N+](=O)[O-])ccc6[nH]c5c(c1=O)c2c34` gave a therapeutic window of 3.9 to 125 nM (TZM-bl, NL4-3; range active at 80% cytotoxicity or less).
For `Cc1cc(C)cc(S(=O)(=O)c2c(C(=O)NCCCCCNS(=O)(=O)c3ccc([N+](=O)[O-])cc3)[nH]c3ccc(Cl)cc23)c1`, the EC50 was 27 ± 7.9 nM (MT-4, IIIB).
The IC50 of `C=C(C)[C@@H]1CC[C@]2(C(=O)OCCOCCOCCOCCO)CC[C@]3(C)[C@H](CC[C@@H]4[C@@]5(C)CC[C@H](O)C(C)(C)[C@@H]5CC[C@]43C)[C@@H]12` is reported as > 10 µM (measured: p24; MT4, NL4-3; 96 h).
The EC50 of `Cc1cc(C)cc(S(=O)(=O)c2c(C(=O)NCCCCNS(=O)(=O)c3ccccc3)[nH]c3ccc(Cl)cc23)c1` is reported as 7.5 ± 1 nM (MT-4, IIIB).
`C=C(C)[C@@H]1CC[C@]2(C(=O)O)CC[C@]3(C)[C@H](CC[C@@H]4[C@@]5(C)CC[C@H](OCOCCOC)C(C)(C)[C@@H]5CC[C@]43C)[C@@H]12` gave an IC50 of > 10 µM (measured: p24; MT4, NL4-3; 96 h).

A few entries again:
`C=C(C)[C@@H]1CC[C@]2(C(=O)OCOCCOC)CC[C@]3(C)[C@H](CC[C@@H]4[C@@]5(C)CC[C@H](OCOCCOC)C(C)(C)[C@@H]5CC[C@]43C)[C@@H]12` gave an IC50 of > 10 µM (measured: p24; MT4, NL4-3; 96 h).
